Assay results gathered from unrelated publications.
A part holds a random share of what one study measured.

Study 1
Target: Ras GTPase-activating protein-binding protein 1, C-terminal RGG region (G3BP1, Homo sapiens, UniProt Q13283)
Chain of UniProt Q13283 (whole entry, looked up): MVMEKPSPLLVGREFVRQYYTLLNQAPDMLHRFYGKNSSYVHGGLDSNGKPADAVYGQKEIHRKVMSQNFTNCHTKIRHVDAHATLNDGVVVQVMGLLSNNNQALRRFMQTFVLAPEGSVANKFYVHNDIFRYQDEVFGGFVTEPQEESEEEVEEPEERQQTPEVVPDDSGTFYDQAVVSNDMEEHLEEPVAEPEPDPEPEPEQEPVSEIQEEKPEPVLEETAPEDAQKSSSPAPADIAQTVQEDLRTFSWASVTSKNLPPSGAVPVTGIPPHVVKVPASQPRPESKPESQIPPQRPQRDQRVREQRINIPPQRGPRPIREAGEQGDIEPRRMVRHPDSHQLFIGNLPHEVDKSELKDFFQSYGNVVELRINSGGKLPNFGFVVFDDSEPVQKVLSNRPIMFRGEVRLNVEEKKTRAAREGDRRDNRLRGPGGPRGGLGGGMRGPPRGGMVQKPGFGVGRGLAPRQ
Technique: RNA Bind-n-Seq
Form: RNA
Sample: in vitro
Tested at: 1 µM
Notes: whole 134-nt RNA, ends assumed
With: 150 mM KCl
Relative to: input library
Direction: higher = stronger binding
Endpoint: log2 enrichment
Shared flanks, not repeated: GGGAGUUCUACAGUCCGACGAUC … UGGAAUUCUCGGGUGUCAAGG
AGUCCUGUGCUACACAUCGUAUGUACCGAAUCGGGAAAAAGGAAAAAGGGAAAAAGGAAAGUAUUAUGUUACGCCGUUCGGAUCUGCACU: -1.9
UUCAGUUUCCCAAACCUGAGAUGAUCUGUCAGCUGGAGAACUGGGACGAGCAGUGGAUCCUGGAUCUACCGAGAACUGGGAAUAGGAAGG: -0.0938
AAGUCCUGUGCUACACAUCGUAUGUACCGAAUCGGUUUUUGGUUUUUGGGUUUUUGGAAAGUAUUAUGUUACGCCGUUCGGAUCUGCACU: -1.41
UCAAGUCCUGUGCUACACAUCGUAUGUACCGAAUCGGCCCGGGCCCGGGCCCGGGAAAGUAUUAUGUUACGCCGUUCGGAUCUGCACUUC: -1.97
CACAGACAACACGCACCCACACAGACACAGAGGGAAGGGGUUGGGAGGGGGACAGGGUGCACAGCAGGGCGGGGUAGGACCCCAGCCCCU: -0.592
GUCCUGUGCUACACAUCGUAUGUACCGAAUCGGGCCCCCGGGGCCCCCGGCCCCCGGGAAAGUAUUAUGUUACGCCGUUCGGAUCUGCAC: -1.56
UGGGAGGUGGAUUUUGUUUAUUUUUUUAGCUCAAUUCCAGGGGUGGGAAUUUUUUUUUAAUAUGUGUCAUGAAUAAAGUUGUUUUUGAAA: 3.38
CUCAAGUCCUGUGCUACACAUCGUAUGUACCGAAUCGGGUUGGGUUGGUUGGGGAAAGUAUUAUGUUACGCCGUUCGGAUCUGCACUUCC: 0.889
GCAGGAAGUAAAAACAAAUGGAAAUGCUUCGGAUAGUGGCAGGGGUGGGGGUUGCUAAGGAAAGGGUGGGAUGGCAGUGGGUAAAGAGUU: 1.89
UCCUCAAGUCCUGUGCUACACAUCGUAUGUACCGAAUCGGUGGGUGGGUGGAAAGUAUUAUGUUACGCCGUUCGGAUCUGCACUUCCAGC: 0.0911
CCUGUGCUACACAUCGUAUGUACCGAAUCGGUUUUUUGGGGUUUUUUGGGUUUUUUGGGGAAAGUAUUAUGUUACGCCGUUCGGAUCUGC: -1.73
UGGGAGGUGGAUUUUGUUUAUUUUUUUAGCUCAUUUCCAGGGGCGGGAAUUUUUUUUUAAUAUGUGUCAUGAAUAAAGUUGUUUUUGAAA: 2.37
UCCUGUGCUACACAUCGUAUGUACCGAAUCGGGGAAAAAAAGGGGAAAAAGGGGAGGGGAAAGUAUUAUGUUACGCCGUUCGGAUCUGCA: 1.85
CUCAAGUCCUGUGCUACACAUCGUAUGUACCGAAUCGGGGAAGGGGAAGGAAGGAAAGUAUUAUGUUACGCCGUUCGGAUCUGCACUUCC: -1.22

Study 2
Target: Centromere-binding protein 1, full length, His-tagged (CBF1, Saccharomyces cerevisiae, UniProt P17106, residues 1-351)
Chain of UniProt P17106 (whole entry, looked up): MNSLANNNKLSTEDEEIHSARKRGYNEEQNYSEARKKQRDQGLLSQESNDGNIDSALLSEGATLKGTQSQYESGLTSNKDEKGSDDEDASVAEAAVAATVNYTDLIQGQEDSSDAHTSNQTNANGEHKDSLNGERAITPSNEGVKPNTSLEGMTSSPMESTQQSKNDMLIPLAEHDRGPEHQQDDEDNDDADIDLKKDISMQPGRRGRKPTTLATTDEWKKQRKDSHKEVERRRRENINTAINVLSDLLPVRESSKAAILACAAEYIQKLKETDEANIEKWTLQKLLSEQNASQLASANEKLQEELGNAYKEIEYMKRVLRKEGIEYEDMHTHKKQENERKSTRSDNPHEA
Technique: competition protein-binding microarray
Form: double-stranded DNA, one strand shown
Sample: in vitro
Tested at: 2 µM
Notes: whole 60-bp probe, lowest competitor level
With: Pho4 competitor, 0.05 µM
Direction: higher = stronger binding
Endpoint: fluorescence intensity
Shared flanks, not repeated: … GTCTTGATTCGCTTGACGCTGCTG
TGGGAGGCACTGAAGTCCGTGCCGATTCCTCGACGC: 60 a.u.
CGAAGAGGTTCCTATCACCTGCATTCGGTGTTTCTA: 84.8 a.u.
TTCGAAATAGATTCCCAAAAAAAAAAAAAGGGATAT: 103 a.u.
CTTTCCCGATCTTGCTAGGTGGGTGTAGCACATTTG: 68.6 a.u.
CGGGGTTAAGTTTGTCACCCCACTTGCTTGCAGCAG: 68.2 a.u.
AAAGCGGTAATTTGCACCGTGGGTGCAGATATCTAT: 86 a.u.
AAACTTTCTGTGGAAATCGTGCCGATTAAACCATTA: 78.2 a.u.
AGCAACCGCACACAGAATGTGACGGCAAATGCATTT: 83.7 a.u.
AAAGCGGTAATTTGGATGGTGGGTGCAGATATCTAT: 72.8 a.u.
CTTTCCCGATCTTATCACGTGTTTTTAGCACATTTG: 5120 a.u.
CGGGGTTAAGTTTGTCCCGTGGGTGGCTTGCAGCAG: 89.5 a.u.
TGTTCCATTCAATGAAACATGTCAATTCTCTGAGTG: 74.7 a.u.
GTCTTGTCTCATTGGCGTGTGGGTGTCCCCACTTCA: 78.5 a.u.
AAAAGGTTGACTGGGCTCGTGAAGATTTCGAAAAGA: 82.6 a.u.
CTTCTGTAAATTTGCCAAGTGGGTGGACGCGCCCCG: 73.9 a.u.
ATTTTTACTTTAGTGCGCGTGGGTAGCCGAGCCTCG: 65.3 a.u.
GCTTAAGGGCTCGACCACGTGCGATTCGCTGCTCAA: 1080 a.u.
TCTTGACATGTTCGGCACGCAAAATACCACCTAGGG: 73.8 a.u.
CCGGACTTCCATCGGCACGTGGACCTAAAATTCTTT: 1940 a.u.
TGCGCAACAACTTGCAATGTGGGTGTATGTCTAGAA: 69.3 a.u.
AGATTTTCAAAATCGCATGTGATATAGTCGAAAGGG: 447 a.u.

Study 3
Target: Interferon regulatory factor 5, full length, phosphomimetic (IRF5, Homo sapiens, UniProt Q13568-2, residues 1-514, S451D/S453D/S456D/S462D)
Technique: protein-binding microarray
Form: double-stranded DNA, one strand shown
Sample: in vitro
Tested at: 940 nM top
Notes: 60-bp whole probe
With: salmon DNA 0.4 mg/ml
Relative to: random background probes
Direction: higher = stronger binding
Endpoint: fitted relative affinity
Shared flanks, not repeated: GCCTAGCAC … GTCTTGATTCGCTTGACGCTGCTG
TACGGTTTCGACACTGGGGACGTGCTA: 6.55 z-score
GGGTCTGTGCCTTTTTTTTTGTGCTAG: 0.122 z-score
TTAGATATCAGACGGGATTAGTGCTAG: -0.514 z-score
TCAAATGATTGGTTGAAACTGTGCTAG: -0.166 z-score
GACGATTTCAGACTGCAGACGTGCTAG: -0.355 z-score
CTAGGACTGGGTCTCGGTTAGTGCTAG: 1.23 z-score
AGCAGAAAGTGAAATACCCTCGTGCTA: -0.0613 z-score
TTTGGTTTCCTTCTCCTTTAGTGCTAG: 3.87 z-score
GACGGTATCGGCTTCGGGACGTGCTAG: 4.75 z-score
TTAGGTTCCGGGACTGGGTTAGTGCTA: 0.682 z-score
GACGAACTGGGGACTGGAGCCGTGCTA: -0.102 z-score
GCAAACCCCATTCTCAGCCCGTGCTAG: 0.814 z-score
TACGGTCTCGGTCTCGGGACGTGCTAG: 3.48 z-score
GACGGTTTCCTTTTCCTGTCGTGCTAG: 4.06 z-score
CACCCCGCCCCTCCTTGGCCGTGCTAG: 0.0864 z-score
CCTTATCCCTAATCTCAGCCTGTGCTA: 1.28 z-score
TTAGATTTCAGACTAGATTAGTGCTAG: 0.0903 z-score
TTTGATTTCGGGACTGGATTAGTGCTA: 0.95 z-score
AGATTCCTCTCACCTCGGCCTGTGCTA: 1.32 z-score
AAGTGTTTCTCAACCAGTTTGTGCTAG: 0.583 z-score
GACGATATCAGACTGGAGACGTGCTAG: -0.439 z-score
TTTGGTATCGGACTGGGTTAGTGCTAG: 6.75 z-score
TTAGGTTTGGACTATCGGTTAGTGCTA: 0.12 z-score
TTAGGTTCCCTTATCCTTTAGTGCTAG: 0.666 z-score
AACGGACTGGGGTATCGGGACGTGCTA: 0.254 z-score

Study 4
Target: Histone acetyltransferase KAT6A, winged helix 2, GST fusion (KAT6A, Homo sapiens, UniProt Q92794, residues 85-181)
Technique: protein binding microarray
Form: double-stranded DNA, one strand shown
Sample: in vitro
Tested at: not given
Notes: 8-mer, flanks averaged, mean of 2 arrays, mostly near background
Relative to: not given
Direction: higher = stronger binding
Endpoint: E-score
Residues (chain): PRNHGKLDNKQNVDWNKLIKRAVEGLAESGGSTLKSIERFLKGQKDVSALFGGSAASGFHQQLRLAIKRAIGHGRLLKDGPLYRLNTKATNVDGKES
GACTTAGC: -0.127
AGTTGTCC: 0.013
ATACTCAG: 0.109
ACGGTTGA: -0.0244
ACTCCTTG: -0.139
CAATACAC: -0.0231
ATTTGTGG: 0.0198
AGATTGAG: 0.0493
AAAGGGTA: -0.0875
GAGAATGC: -0.136
GAGCTCGC: 0.256
GCTGTTAA: 0.14
AACATTTA: -0.131
GGGAACTA: 0.0948
AGCCCAAC: -0.0765
GAGCCCGA: 0.148
GCCAAAGC: -0.0995
TACTCGCA: 0.0829
AGCTGCCT: -0.115
GTTGCACA: 0.0992

Repeated from above (study 3):
CACCCCGCCCCTCCTTGGCCGTGCTAG: 0.0864 z-score
AGATTCCTCTCACCTCGGCCTGTGCTA: 1.32 z-score
TTAGATTTCAGACTAGATTAGTGCTAG: 0.0903 z-score
TTTGGTTTCCTTCTCCTTTAGTGCTAG: 3.87 z-score
TACGGTCTCGGTCTCGGGACGTGCTAG: 3.48 z-score
TTAGATATCAGACGGGATTAGTGCTAG: -0.514 z-score
GACGATTTCAGACTGCAGACGTGCTAG: -0.355 z-score
AACGGACTGGGGTATCGGGACGTGCTA: 0.254 z-score
GCAAACCCCATTCTCAGCCCGTGCTAG: 0.814 z-score
